# Results gathered from unrelated publications.
# Numbered parts are unrelated; each lists some results of a single study.
# Chain of UniProt P22612 (whole entry, looked up): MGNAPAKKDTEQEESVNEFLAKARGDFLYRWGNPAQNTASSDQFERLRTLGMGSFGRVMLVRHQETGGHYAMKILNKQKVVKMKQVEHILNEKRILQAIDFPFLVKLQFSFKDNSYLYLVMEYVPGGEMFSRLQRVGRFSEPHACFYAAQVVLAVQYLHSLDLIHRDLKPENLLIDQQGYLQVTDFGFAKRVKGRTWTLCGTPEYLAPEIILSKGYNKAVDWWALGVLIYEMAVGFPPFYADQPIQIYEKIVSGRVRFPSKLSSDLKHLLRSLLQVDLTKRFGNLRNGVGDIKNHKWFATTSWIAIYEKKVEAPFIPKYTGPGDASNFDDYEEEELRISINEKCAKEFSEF
# Chain of UniProt Q8NE63 (whole entry, looked up): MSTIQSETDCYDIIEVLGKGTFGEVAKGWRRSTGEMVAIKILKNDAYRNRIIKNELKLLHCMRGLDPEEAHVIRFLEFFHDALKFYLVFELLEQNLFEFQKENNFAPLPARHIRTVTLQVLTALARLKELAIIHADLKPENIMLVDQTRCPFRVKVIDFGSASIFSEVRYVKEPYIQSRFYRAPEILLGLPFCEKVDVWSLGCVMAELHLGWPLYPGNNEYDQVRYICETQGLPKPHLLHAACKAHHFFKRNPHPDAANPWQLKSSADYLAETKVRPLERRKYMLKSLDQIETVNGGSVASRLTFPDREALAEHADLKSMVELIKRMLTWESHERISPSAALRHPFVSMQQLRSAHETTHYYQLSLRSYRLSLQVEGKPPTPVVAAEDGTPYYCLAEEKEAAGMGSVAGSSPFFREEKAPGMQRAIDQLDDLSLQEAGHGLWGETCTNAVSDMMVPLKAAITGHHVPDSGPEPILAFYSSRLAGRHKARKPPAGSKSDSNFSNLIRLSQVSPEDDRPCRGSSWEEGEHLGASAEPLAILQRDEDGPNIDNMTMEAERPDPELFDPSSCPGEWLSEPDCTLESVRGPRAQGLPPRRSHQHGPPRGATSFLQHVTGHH
# Chain of UniProt P13945 (whole entry, looked up): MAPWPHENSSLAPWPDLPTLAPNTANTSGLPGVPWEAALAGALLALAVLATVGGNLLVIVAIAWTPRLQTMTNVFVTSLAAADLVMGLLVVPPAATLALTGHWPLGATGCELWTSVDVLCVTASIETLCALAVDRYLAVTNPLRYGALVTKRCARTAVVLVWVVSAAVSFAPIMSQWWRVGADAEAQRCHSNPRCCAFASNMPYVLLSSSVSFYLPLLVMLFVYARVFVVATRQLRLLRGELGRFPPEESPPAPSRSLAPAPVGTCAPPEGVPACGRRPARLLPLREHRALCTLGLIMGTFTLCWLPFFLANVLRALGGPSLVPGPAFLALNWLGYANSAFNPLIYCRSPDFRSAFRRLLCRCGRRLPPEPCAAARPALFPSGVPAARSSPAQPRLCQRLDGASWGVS
# Chain of UniProt P08173 (whole entry, looked up): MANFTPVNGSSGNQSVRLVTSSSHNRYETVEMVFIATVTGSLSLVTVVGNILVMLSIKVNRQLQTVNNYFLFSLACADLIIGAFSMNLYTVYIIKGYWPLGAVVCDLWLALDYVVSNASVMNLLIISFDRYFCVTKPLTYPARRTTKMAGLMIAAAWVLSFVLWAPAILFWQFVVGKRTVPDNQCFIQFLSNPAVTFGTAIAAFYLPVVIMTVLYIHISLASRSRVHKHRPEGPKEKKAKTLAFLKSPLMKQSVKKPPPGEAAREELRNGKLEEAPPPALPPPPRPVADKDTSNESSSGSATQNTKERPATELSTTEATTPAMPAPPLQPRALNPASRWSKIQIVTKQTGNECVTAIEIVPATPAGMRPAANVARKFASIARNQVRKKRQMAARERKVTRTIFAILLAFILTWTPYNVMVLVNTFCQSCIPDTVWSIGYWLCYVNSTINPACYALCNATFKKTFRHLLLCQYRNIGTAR
# Chain of UniProt P00519 (whole entry, looked up): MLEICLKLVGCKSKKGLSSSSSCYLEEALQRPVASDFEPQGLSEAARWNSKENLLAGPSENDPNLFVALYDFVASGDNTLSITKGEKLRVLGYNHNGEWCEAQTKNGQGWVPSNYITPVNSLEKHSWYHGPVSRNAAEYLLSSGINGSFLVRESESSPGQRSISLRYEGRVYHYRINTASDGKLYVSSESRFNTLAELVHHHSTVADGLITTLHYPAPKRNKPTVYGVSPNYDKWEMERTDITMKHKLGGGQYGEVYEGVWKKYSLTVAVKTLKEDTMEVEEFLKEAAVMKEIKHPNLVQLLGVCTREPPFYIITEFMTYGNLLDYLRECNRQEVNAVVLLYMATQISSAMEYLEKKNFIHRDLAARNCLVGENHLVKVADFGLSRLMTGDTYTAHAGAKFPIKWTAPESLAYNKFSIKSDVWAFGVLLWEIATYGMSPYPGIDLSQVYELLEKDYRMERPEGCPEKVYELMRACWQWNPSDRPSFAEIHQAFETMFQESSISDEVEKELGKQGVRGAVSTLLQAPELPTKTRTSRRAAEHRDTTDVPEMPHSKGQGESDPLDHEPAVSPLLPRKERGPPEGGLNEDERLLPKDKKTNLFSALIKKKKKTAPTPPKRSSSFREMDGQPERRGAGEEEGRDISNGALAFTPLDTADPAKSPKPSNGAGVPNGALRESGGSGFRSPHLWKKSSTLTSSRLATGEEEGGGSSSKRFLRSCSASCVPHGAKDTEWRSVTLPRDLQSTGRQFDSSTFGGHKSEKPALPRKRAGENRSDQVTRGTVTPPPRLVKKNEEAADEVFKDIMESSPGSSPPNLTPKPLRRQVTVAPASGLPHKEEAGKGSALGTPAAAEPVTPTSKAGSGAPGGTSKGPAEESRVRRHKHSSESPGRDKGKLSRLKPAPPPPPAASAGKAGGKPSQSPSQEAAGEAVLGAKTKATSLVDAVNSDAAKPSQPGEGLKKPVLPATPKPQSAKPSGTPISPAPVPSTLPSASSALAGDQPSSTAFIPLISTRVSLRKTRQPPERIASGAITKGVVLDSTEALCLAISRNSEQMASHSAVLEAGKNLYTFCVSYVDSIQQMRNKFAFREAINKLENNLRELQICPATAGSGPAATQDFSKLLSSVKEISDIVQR
# Chain of UniProt P25021 (whole entry, looked up): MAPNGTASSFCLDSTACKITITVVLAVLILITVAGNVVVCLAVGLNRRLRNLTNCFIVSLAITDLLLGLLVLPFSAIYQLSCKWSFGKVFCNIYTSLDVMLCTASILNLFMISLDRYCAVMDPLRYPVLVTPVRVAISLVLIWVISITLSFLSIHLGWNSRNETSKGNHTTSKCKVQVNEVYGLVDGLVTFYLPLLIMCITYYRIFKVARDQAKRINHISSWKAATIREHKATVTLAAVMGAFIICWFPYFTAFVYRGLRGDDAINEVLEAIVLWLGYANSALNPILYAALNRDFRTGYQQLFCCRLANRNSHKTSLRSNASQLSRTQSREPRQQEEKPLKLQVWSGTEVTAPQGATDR
# Chain of UniProt P54762 (whole entry, looked up): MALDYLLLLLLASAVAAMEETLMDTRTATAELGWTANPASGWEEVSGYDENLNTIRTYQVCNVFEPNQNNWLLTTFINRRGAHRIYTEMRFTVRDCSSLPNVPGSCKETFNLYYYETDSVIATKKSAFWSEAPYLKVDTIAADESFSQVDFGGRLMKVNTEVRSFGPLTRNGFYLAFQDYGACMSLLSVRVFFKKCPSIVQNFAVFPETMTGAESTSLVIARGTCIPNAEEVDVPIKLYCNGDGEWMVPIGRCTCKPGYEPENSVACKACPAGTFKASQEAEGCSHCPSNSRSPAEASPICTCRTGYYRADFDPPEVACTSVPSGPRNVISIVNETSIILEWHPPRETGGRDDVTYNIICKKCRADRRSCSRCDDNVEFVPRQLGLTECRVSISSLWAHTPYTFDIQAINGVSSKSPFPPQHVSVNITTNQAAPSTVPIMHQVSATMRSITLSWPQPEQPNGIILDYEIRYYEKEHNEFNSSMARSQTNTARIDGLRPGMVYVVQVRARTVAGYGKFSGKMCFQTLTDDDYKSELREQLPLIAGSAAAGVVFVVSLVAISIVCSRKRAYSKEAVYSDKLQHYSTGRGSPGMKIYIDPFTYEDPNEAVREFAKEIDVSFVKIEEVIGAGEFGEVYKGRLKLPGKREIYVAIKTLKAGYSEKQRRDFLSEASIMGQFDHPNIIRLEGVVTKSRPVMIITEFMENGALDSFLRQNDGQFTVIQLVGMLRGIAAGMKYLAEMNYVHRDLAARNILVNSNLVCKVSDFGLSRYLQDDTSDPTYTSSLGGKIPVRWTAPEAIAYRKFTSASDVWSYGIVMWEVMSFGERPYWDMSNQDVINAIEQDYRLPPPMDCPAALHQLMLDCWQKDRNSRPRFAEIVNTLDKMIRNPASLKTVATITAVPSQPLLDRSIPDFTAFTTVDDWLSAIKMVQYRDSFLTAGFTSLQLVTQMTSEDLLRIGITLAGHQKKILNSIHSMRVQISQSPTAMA
# Chain of UniProt Q9Y5N1 (whole entry, looked up): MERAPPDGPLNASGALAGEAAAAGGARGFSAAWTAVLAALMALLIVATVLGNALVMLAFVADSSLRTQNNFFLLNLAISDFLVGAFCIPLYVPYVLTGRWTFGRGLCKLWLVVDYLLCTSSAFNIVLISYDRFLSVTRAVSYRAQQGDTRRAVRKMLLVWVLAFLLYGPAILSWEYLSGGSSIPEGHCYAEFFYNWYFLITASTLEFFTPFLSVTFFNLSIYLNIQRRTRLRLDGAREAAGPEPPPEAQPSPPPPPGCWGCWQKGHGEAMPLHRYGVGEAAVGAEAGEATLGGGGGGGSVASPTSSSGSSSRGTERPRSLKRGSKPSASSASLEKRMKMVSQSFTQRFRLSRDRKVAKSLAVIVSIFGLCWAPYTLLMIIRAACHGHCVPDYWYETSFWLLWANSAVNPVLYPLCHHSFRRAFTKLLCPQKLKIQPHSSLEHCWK

# Sample 1 — effect on: enzyme activity; action: inhibitor; tested at: 0.5 µM; baseline: control
# Compound: CCCNC(=O)Nc1ccc(Oc2ncnc3cc(OC)c(OC)cc23)cc1Cl
target,remaining activity [%]
"Mitogen-activated protein kinase kinase kinase kinase 4 (MAP4K4, Homo sapiens, UniProt O95819)",86.4
"MAP kinase-activated protein kinase 3 (MAPKAPK3, Homo sapiens, UniProt Q16644)",95.8
"Cyclin-dependent kinase 4, with cyclin D3 (CDK4, Homo sapiens, UniProt P11802)",101
"Serine/threonine-protein kinase WNK3 (WNK3, Homo sapiens, UniProt Q9BYP7)",93.8
"Ephrin type-A receptor 4 (EPHA4, Homo sapiens, UniProt P54764)",93.4
"Homeodomain-interacting protein kinase 4 (HIPK4, Homo sapiens, UniProt Q8NE63)",93.5
"Tyrosine-protein kinase receptor UFO (AXL, Homo sapiens, UniProt P30530)",101
"Ribosomal protein S6 kinase alpha-5 (RPS6KA5, Homo sapiens, UniProt O75582)",95.6
"Dual specificity tyrosine-phosphorylation-regulated kinase 3 (DYRK3, Homo sapiens, UniProt O43781)",99.7
"Tyrosine-protein kinase Srms (SRMS, Homo sapiens, UniProt Q9H3Y6)",105
"cAMP-dependent protein kinase catalytic subunit gamma (PRKACG, Homo sapiens, UniProt P22612)",106
"Cyclin-dependent kinase 6, with cyclin D3 (CDK6, Homo sapiens, UniProt Q00534)",89.5
"Cyclin-dependent kinase 1, with cyclin B (CDK1, Homo sapiens, UniProt P06493)",98
"Tyrosine-protein kinase Blk (BLK, Homo sapiens, UniProt P51451)",96.8
"Homeodomain-interacting protein kinase 2 (HIPK2, Homo sapiens, UniProt Q9H2X6)",97.9
"Ribosomal protein S6 kinase alpha-6 (RPS6KA6, Homo sapiens, UniProt Q9UK32)",102
"Phosphorylase b kinase gamma catalytic chain, skeletal muscle/heart isoform (PHKG1, Homo sapiens, UniProt Q16816)",91.3
"3-phosphoinositide-dependent protein kinase 1 (PDPK1, Homo sapiens, UniProt O15530)",86.8
"Serine/threonine-protein kinase 17A (STK17A, Homo sapiens, UniProt Q9UEE5)",99
"Tyrosine-protein kinase ABL1 (ABL1, Homo sapiens, UniProt P00519)",89
"Testis-specific serine/threonine-protein kinase 2 (TSSK2, Homo sapiens, UniProt Q96PF2)",98.7
"Serine/threonine-protein kinase 16 (STK16, Homo sapiens, UniProt O75716)",93.4
"Calcium/calmodulin-dependent protein kinase type II subunit beta (CAMK2B, Homo sapiens, UniProt Q13554)",94.9
"Ephrin type-B receptor 1 (EPHB1, Homo sapiens, UniProt P54762)",95.5
"Ephrin type-B receptor 4 (EPHB4, Homo sapiens, UniProt P54760)",89.4

# Sample 2 — organism: Sarcocystis neurona; effect on: parasite growth; tested at: 10 µM
Compound,inhibition
CCN(CC)CC(=O)Nc1c(C)cccc1C,-33.5%
O=C1c2c(O)ccc(O)c2C(=O)c2c(NCCNCCO)ccc(NCCNCCO)c21,59.9%
COC(=O)C1=C(C)NC(C)=C(C(=O)O[C@@H]2CCCN(Cc3ccccc3)C2)[C@@H]1c1cccc([N+](=O)[O-])c1.Cl (racemic),12.6%
CCCCCCNC(=O)n1cc(F)c(=O)[nH]c1=O,78.4%
C[C@H]1COc2c(N3CCN(C)CC3)c(F)cc3c(=O)c(C(=O)O)cn1c23,5.7%
COc1cc(N)c(Cl)cc1C(=O)NC1CCN(CCCOc2ccc(F)cc2)CC1OC.O (stereo not shown),3.2%
NC(=O)c1ncn([C@@H]2O[C@H](CO)[C@@H](O)[C@H]2O)n1,-29.3%
C[C@@](Cc1ccc(O)c(O)c1)(NN)C(=O)O,-20.2%
CCOC(=O)CCC(=O)O[C@H]1[C@H](O[C@@H]2[C@@H](C)[C@H](O[C@H]3C[C@@](C)(OC)[C@@H](O)[C@H](C)O3)[C@@H](C)C(=O)O[C@H](CC)[C@@](C)(O)[C@H](O)[C@@H](C)C(=O)[C@H](C)C[C@@]2(C)O)O[C@H](C)C[C@@H]1N(C)C,19.1%

# Sample 3 — cell line: HaCaT; tested at: 100 µM; time: 60 h
Structure (SMILES),viability [%]
CC(=O)NCCCS(=O)(=O)O,127
O=C(c1ccc(F)c(F)c1Nc1ccc(I)cc1F)N1CC(O)([C@@H]2CCCCN2)C1,14.9
NC(N)=Nc1nc(CSCCC(N)=NS(N)(=O)=O)cs1,144
CN1CC(=O)N2[C@H](c3ccc4c(c3)OCO4)c3[nH]c4ccccc4c3C[C@@H]2C1=O,158
NC[C@H]1O[C@H](O[C@H]2[C@H](O[C@@H]3O[C@H](CO)[C@@H](O)[C@H]3O)[C@@H](O)[C@H](N)C[C@@H]2N)[C@H](N)[C@@H](O)[C@@H]1O,140
CCCC(=O)OCOC(=O)C1=C(C)NC(C)=C(C(=O)OC)C1c1cccc(Cl)c1Cl (stereo not shown),27.3
CCOc1nc2cccc(C(=O)OC(C)OC(=O)OC3CCCCC3)c2n1Cc1ccc(-c2ccccc2-c2nnn[nH]2)cc1 (stereo not shown),18
CCCCC1=NC2(CCCC2)C(=O)N1Cc1ccc(-c2ccccc2-c2nnn[nH]2)cc1,108
Clc1ccc(C(Cn2ccnc2)OCc2c(Cl)cccc2Cl)c(Cl)c1 (stereo not shown),89.3
N=C(N)N,143

# Sample 4 — tested at: 10 µM
# Structure (SMILES): CO[C@@H](C)c1c(Nc2ccc([C@H](N(C)C(=O)C3CCS(=O)(=O)CC3)C(F)(F)F)cc2)cnc2cc(Cl)nn12
target,effect on,technique,inhibition [%]
"5-hydroxytryptamine receptor 1B (HTR1B, Homo sapiens, UniProt P28222)",binding,radioligand binding,12.5
"Alpha-2B adrenergic receptor (ADRA2B, Homo sapiens, UniProt P18089)",ligand displacement,,0.32
"Histamine H3 receptor (HRH3, Homo sapiens, UniProt Q9Y5N1)",ligand displacement,,-5.74
"5-hydroxytryptamine receptor 1D (HTR1D, Homo sapiens, UniProt P28221)",cell-free assay,,-2.45
"Muscarinic acetylcholine receptor M4 (CHRM4, Homo sapiens, UniProt P08173)",ligand displacement,,21.3
"D(3) dopamine receptor (DRD3, Homo sapiens, UniProt P35462)",ligand displacement,,-4.43
"D(2) dopamine receptor (DRD2, Homo sapiens, UniProt P14416)",ligand displacement,,4.1
"Beta-3 adrenergic receptor (ADRB3, Homo sapiens, UniProt P13945)",ligand displacement,,15.4
"Histamine H2 receptor (HRH2, Homo sapiens, UniProt P25021)",ligand displacement,,-9.88
"5-hydroxytryptamine receptor 1E (HTR1E, Homo sapiens, UniProt P28566)",cell-free assay,,-13.1
"D(1A) dopamine receptor (DRD1, Homo sapiens, UniProt P21728)",ligand displacement,,23.7
"Alpha-1A adrenergic receptor (ADRA1A, Homo sapiens, UniProt P35348)",ligand displacement,,-7.59

# Other studies, line by line — effect on: target engagement in cells; technique: BRET
# Target: GTPase KRas (KRAS, Homo sapiens, UniProt P01116, G13D)
Structure (SMILES),IC50 [nM]
CCC(=O)N1CCN(c2nc(OC[C@@H]3CCCN3C)nc3c2CCN(c2cccc4cccc(Cl)c24)C3)C[C@@H]1CC#N,1130
CC(=O)N1CCN(c2nc(OC[C@@H]3CCCN3C)nc3c2CCN(c2cccc4cccc(Cl)c24)C3)C[C@@H]1CC#N,1060
